Results from different studies.
Protocols differ between the studies behind these lines. ± marks the error that the study gave.
Cell line: SMMC-7721

Structure (SMILES) | read-out | technique | concentration | time | endpoint | value
Cc1ccc2oc(=O)c(-c3nc4cnccc4[nH]3)cc2c1 | cell proliferation | – | – | 72 h | EC50 | 9.37 µM
CC(C)CCc1c(O)cc2oc3cc(O)c(O)c(CCC(C)C)c3c(=O)c2c1O | cell growth or viability | – | – | 48 h | IC50 | 6.51 µM
Nc1ccn([C@@H]2O[C@H](CO)[C@@H](O)[C@@H]2O)c(=O)n1 | cell growth or viability | MTT | – | 24 h | IC50 | 630 µM
OCC1OC(OCC2OC(OC3OC=CC4C(O)C5OC5(CO)C34)C(O)C(O)C2O)C(O)C(O)C1O (centres unmarked) | – | MTT | concentration not given | – | cell growth | no effect
COc1ccc2cc3[n+](cc2c1OCc1cn(Cc2ccc(S(C)(=O)=O)cc2)nn1)CCc1cc2c(cc1-3)OCO2 | cell growth or viability | MTT | – | – | IC50 | 69.7 µM
O=C(/C=C/c1ccc(O[C@@H]2O[C@H](CO)[C@@H](O)[C@H](O)[C@H]2O)cc1)c1ccc(O)cc1O | – | MTT | concentration not given | – | cell growth | no effect
COc1ccc2cc3[n+](cc2c1OCc1cn(Cc2ccc(Cl)cc2Cl)nn1)CCc1cc2c(cc1-3)OCO2 | cell growth or viability | MTT | – | – | IC50 | 27.9 µM
COc1c(O)cc2oc3cc4c(c(O)c3c(=O)c2c1CC(O)C(C)(C)O)CC(O)O4 (centres unmarked) | cell growth or viability | – | – | 48 h | IC50 | > 40 µM
COc1ccc2cc3[n+](cc2c1OCc1cn(Cc2ccccc2C#N)nn1)CCc1cc2c(cc1-3)OCO2 | cell growth or viability | MTT | – | – | IC50 | 64 µM
COc1c(O)cc2oc3cc(O)c4c(c3c(=O)c2c1CCC(C)(C)O)OC(C)(C)CC4 | cell growth or viability | – | – | 48 h | IC50 | > 40 µM
O=C(/C=C/c1ccc2c(c1)C(=O)N(CCCc1ccccc1)CC2)NO | cell growth | SRB | – | 72 h | IC50 | 2.76 ± 1.32 µM

Repeated from above:
Structure (SMILES) | read-out | technique | concentration | time | endpoint | value
COc1c(O)cc2oc3cc4c(c(O)c3c(=O)c2c1CC(O)C(C)(C)O)CC(O)O4 (centres unmarked) | cell growth or viability | – | – | 48 h | IC50 | > 40 µM
